Assay results collected from several papers.
“And” joins repeats or separate records; there may be more than shown. ± gives the spread as reported.

COc1ccc(C(=O)CCc2cc(C(CCc3ccc(O)cc3OC)c3ccc(O)cc3)c(O)cc2OC)cc1 (racemic) — TXB2 level (human blood; 3 µM, together with: A23187): 1330 ± 482 pg/mL
COC1OC(C)C(OC2OC(C)C(OS(=O)(=O)O)C(OC3OC(C)C(OC4OC(C)C(OS(=O)(=O)O)C(OC5OC(C)C(OS(=O)(=O)O)C(OS(=O)(=O)O)C5OS(=O)(=O)O)C4OS(=O)(=O)O)C(OS(=O)(=O)O)C3OS(=O)(=O)O)C2OS(=O)(=O)O)C(OS(=O)(=O)O)C1OS(=O)(=O)O (centres unmarked) — activated partial thromboplastin time (human plasma; 64 µg/mL): 80.4 s and 82.5 s and 81.1 s
N[C@@H](CNC(=O)N[C@@H](CS)C(=O)NCC(=O)O)C(=O)O — IL-6 level (ELISA; mouse C57BL/6, Aβ i.c.v. model, brain lysate; intranasal, dose not given): 16.2 ± 1.3 pg/mg protein
COC1OC(C)C(OS(=O)(=O)O)C(OC2OC(C)C(OS(=O)(=O)O)C(OC3OC(C)C(OS(=O)(=O)O)C(OC4OC(C)C(OS(=O)(=O)O)C(OC5OC(C)C(OS(=O)(=O)O)C(OS(=O)(=O)O)C5O)C4O)C3O)C2O)C1O (centres unmarked) — activated partial thromboplastin time (human plasma; 128 µg/mL): 41.8 ± 0.4 s
CN(C)Cc1nc(Nc2ccc(-c3cnc4cc(F)ccn34)c3c2C(=O)NC3)ccc1C1CCOC1 (centres unmarked) — pSLP76 decrease (mouse EMT6 tumour model, spleen; 75 mg/kg, 2 h): > 90%
CCCCCCCCCCCCCCCC(=O)NCCCC[C@H](NC(=O)[C@H](CCC(=O)O)NC(=O)[C@H](Cc1ccc(O)cc1)NC(=O)[C@H](CCC(=O)O)NC(=O)COCC(=O)NCCCOCCOCCOCCCNC(=O)[C@H](Cc1ccccc1)NC(=O)[C@H](CC(N)=O)NC(=O)[C@H](Cc1c[nH]cn1)NC(=O)[C@@H](NC(=O)[C@H](CC(=O)O)NC(=O)[C@H](CCC(N)=O)NC(=O)[C@H](CC(C)C)NC(=O)[C@H](CCCCN)NC(=O)[C@H](CCCCN)NC(=O)[C@H](CCCNC(=N)N)NC(=O)[C@H](CC(C)C)NC(=O)[C@H](Cc1c[nH]c2ccccc12)NC(=O)[C@H](CCC(=O)O)NC(=O)[C@@H](NC(=O)[C@H](CCCNC(=N)N)NC(=O)[C@H](CCC(=O)O)NC(=O)[C@H](CCSC)NC(=O)[C@H](CO)NC(=O)[C@H](CC(N)=O)NC(=O)[C@H](CC(C)C)NC(=O)[C@H](Cc1c[nH]cn1)NC(=O)[C@H](CCCCN)NC(=O)CNC(=O)[C@H](CC(C)C)NC(=O)[C@H](CC(N)=O)NC(=O)[C@H](Cc1c[nH]cn1)NC(=O)[C@H](CCSC)NC(=O)[C@H](CC(C)C)NC(=O)[C@H](CCC(N)=O)NC(=O)[C@@H](NC(=O)[C@H](CCC(=O)O)NC(=O)[C@H](CO)NC(=O)[C@@H](NC(=O)[C@@H](N)CO)C(C)C)[C@@H](C)CC)C(C)C)C(C)C)C(=O)N[C@@H](CCC(=O)O)C(=O)N[C@@H](Cc1ccc(O)cc1)C(=O)N[C@@H](CCC(=O)O)C(N)=O — bone volume/total volume (micro-CT; humanized PTH1R mouse, femur; dose not given): 37.7% and 44.9%
COc1cc(O)ccc1CCC(c1ccc(O)cc1)c1cc2c(c(C)c1O)OC(c1ccc(O)cc1)CC2 (mixture of isomers) — TXB2 level (human blood; 3 µM, together with: A23187): 561 ± 51 pg/mL
CCC(=O)N[C@@H](C)C(=O)OCC(=O)N[C@@H](C)C(=O)O — chain scission rate constant (water; pH 8, 25 °C): 0.0154 h⁻¹
CC(C)C[C@H](NC(=O)[C@H](Cc1ccccc1)NC(=O)[C@H](C)NC(=O)[C@@H](CS)NC(=O)CNC(=O)[C@H](N)CO)C(=O)N[C@@H](CO)C(=O)N[C@H](C(=O)N[C@@H](CCCCN)C(=O)N[C@@H](CCCCN)C(=O)N[C@@H](CCC(N)=O)C(=O)N[C@@H](Cc1ccccc1)C(=O)N[C@@H](CCC(=O)O)C(=O)N[C@@H](CCC(=O)O)C(=O)N[C@@H](CC(C)C)C(=O)N[C@H](C(=O)N[C@@H](CC(C)C)C(=O)NCC(=O)N[C@@H](CCC(=O)O)C(=O)N[C@@H](Cc1ccccc1)C(=O)N[C@@H](CC(C)C)C(=O)N[C@H](CCCCN)C(=O)N[C@H](CC(C)C)C(=O)N[C@H](CC(=O)O)C(=O)N[C@@H](CCCNC(=N)N)C(=O)N[C@H](CCCNC(=N)N)C(=O)N[C@@H](CCCNC(=N)N)C(=O)N[C@@H](CCCCN)C(=O)O)[C@@H](C)O)C(C)C — NLRP3 level (mouse A549 xenograft, tumour; intratumoral and intravenous, dose not given): decreased
CCCCCc1ccc(S(=O)(=O)N2CC2C(=O)OC)cc1 (centres unmarked) — tumour volume (mouse, Lewis lung carcinoma; intraperitoneal, 5 mg/kg, 16 doses, day 9): 139 mm3
COCC1CN(C2CCN(c3cc(OC)c(Nc4ncc(Br)c(Nc5ccc6c(c5P(C)(C)=O)OCCO6)n4)cc3C)CC2)C1 — not evaluable patients (RECIST 1.1; advanced EGFR-mutant NSCLC patients; 240 mg once daily): 0%
COC1CN([C@H]2CC[C@H]([C@@]3(C)Oc4c(Cl)cc(C(=O)NCc5c(SC)cc(C)[nH]c5=O)c(C)c4O3)CC2)C1 — log2 fold change (RNA-seq, item: EXOC6B; human, whole blood; dose not given, 24 h; baseline: pretreatment baseline): 1.2
Cc1ccc(N(O)/N=N/c2ccc(S(=O)(=O)Nc3nccs3)cc2)cc1 — inhibition (ABTS scavenging; 240 µg/mL): 99.8%
COC1OC(C)C(OC2OC(C)C(O)C(OC3OC(C)C(OC4OC(C)C(O)C(OC5OC(C)C(OC6OC(C)C(O)C(OS(=O)(=O)O)C6OS(=O)(=O)O)C(OS(=O)(=O)O)C5OS(=O)(=O)O)C4OS(=O)(=O)O)C(OS(=O)(=O)O)C3OS(=O)(=O)O)C2OS(=O)(=O)O)C(OS(=O)(=O)O)C1OS(=O)(=O)O (centres unmarked) — activated partial thromboplastin time (human plasma; 64 µg/mL): 76.5 s and 73.8 s and 69 s
C[C@@H]1Cc2c([nH]c3ccccc23)[C@@H](c2c(F)cc(/C=C/C(=O)O)cc2F)N1C12CC(C1)C2 — H-score (immunohistochemistry, item: progesterone receptor; human patients, PR-positive tumours, tumour biopsy; day 21, paired biopsies, average; direction not given): 170
COc1ccc(NC(=O)c2ccc3[nH]c(-c4ccc(N(C)C)cc4)nc3c2)cn1 — tumour volume (CT26, BALB/c nude mice, subcutaneous graft; dose not given, day 7): 678 mm3 and 858 mm3 and 431 mm3 and 223 mm3 and 702 mm3
COC1OC(C)C(O)C(OC2OC(C)C(O)C(OC3OC(C)C(O)C(OC4OC(C)C(O)C(OC5OC(C)C(O)C(OC6OC(C)C(O)C(OC7OC(C)C(O)C(OS(=O)(=O)O)C7OS(=O)(=O)O)C6OS(=O)(=O)O)C5OS(=O)(=O)O)C4OS(=O)(=O)O)C3OS(=O)(=O)O)C2OS(=O)(=O)O)C1OS(=O)(=O)O (centres unmarked) — activated partial thromboplastin time (human plasma; 128 µg/mL): 39.1 ± 0.7 s
CC(=O)[O-].O.O.O.O.[Ni+2].[O-]c1ccc(Br)cc1C=NCCN1CCOCC1 — inhibition (DPPH radical scavenging; 80 µM): 23.1%
COC1OC(C)C(OC2OC(C)C(OS(=O)(=O)O)C(OC3OC(C)C(OC4OC(C)C(OS(=O)(=O)O)C(OC5OC(C)C(OC6OC(C)C(OS(=O)(=O)O)C(OC7OC(C)C(OC8OC(C)C(OS(=O)(=O)O)C(OC9OC(C)C(OS(=O)(=O)O)C(OS(=O)(=O)O)C9O)C8O)C(OS(=O)(=O)O)C7O)C6O)C(OS(=O)(=O)O)C5O)C4O)C(OS(=O)(=O)O)C3O)C2O)C(OS(=O)(=O)O)C1O (centres unmarked) — activated partial thromboplastin time (human plasma; 128 µg/mL): 41.5 ± 0.3 s
CN1CCC[C@]1(C)/C=C/S(=O)(=O)NC(=O)Nc1c2c(cc3c1CCC3)CCC2 — IL-1β inhibition (human, whole blood ex vivo; 50 mg twice daily, day 14, 24 h, multiple ascending dose, together with: LPS and ATP): 98.8%
COC1OC(C)C(OC2OC(C)C(OS(=O)(=O)O)C(OC3OC(C)C(OC4OC(C)C(OS(=O)(=O)O)C(OC5OC(C)C(OC6OC(C)C(OS(=O)(=O)O)C(OC7OC(C)C(OC8OC(C)C(OS(=O)(=O)O)C(OS(=O)(=O)O)C8O)C(OS(=O)(=O)O)C7O)C6O)C(OS(=O)(=O)O)C5O)C4O)C(OS(=O)(=O)O)C3O)C2O)C(OS(=O)(=O)O)C1O (centres unmarked) — activated partial thromboplastin time (human plasma; 128 µg/mL): 40.6 ± 0.6 s
Nc1nc2cc(CC[C@H]3C[C@@H](n4ccc5c(N)ncnc54)[C@H](O)[C@@H]3O)ccc2cc1Br — %ΔTGI (NCI-H441 xenograft, mouse; 3.0 mg/kg/day, day 38): 118%
COC1OC(C)C(OS(=O)(=O)O)C(OC2OC(C)C(OS(=O)(=O)O)C(OC3OC(C)C(OS(=O)(=O)O)C(OC4OC(C)C(OS(=O)(=O)O)C(OC5OC(C)C(OS(=O)(=O)O)C(OC6OC(C)C(OS(=O)(=O)O)C(OC7OC(C)C(OS(=O)(=O)O)C(OC8OC(C)C(OS(=O)(=O)O)C(OS(=O)(=O)O)C8OS(=O)(=O)O)C7OS(=O)(=O)O)C6OS(=O)(=O)O)C5OS(=O)(=O)O)C4OS(=O)(=O)O)C3OS(=O)(=O)O)C2OS(=O)(=O)O)C1OS(=O)(=O)O (centres unmarked) — activated partial thromboplastin time (human plasma; 32 µg/mL): 119 s and 117 s and 113 s
CNCc1ccc(-c2cc(=O)c3ccc4[nH]c(C(F)(F)F)nc4c3o2)cc1 — Aβ aggregation (immunohistochemistry; 3xTg mice, hippocampus; dose not given, 3 months): decreased
COC1OC(C)C(OC2OC(C)C(OS(=O)(=O)O)C(OC3OC(C)C(OS(=O)(=O)O)C(OS(=O)(=O)O)C3O)C2O)C(OS(=O)(=O)O)C1O (centres unmarked) — activated partial thromboplastin time (human plasma; 128 µg/mL): 34 ± 0.6 s
NC[C@@H](C(=O)Nc1ccc(-c2cn[nH]c2)cc1)c1ccccc1 — IOP (tonometry; Macaca cyclopis, ocular normotensive; ocular, 0.03%, 72 h): 18.8 mmHg

A few entries again:
CN(C)Cc1nc(Nc2ccc(-c3cnc4cc(F)ccn34)c3c2C(=O)NC3)ccc1C1CCOC1 (centres unmarked) — pSLP76 decrease (mouse EMT6 tumour model, spleen; 75 mg/kg, 2 h): > 90%
NC[C@@H](C(=O)Nc1ccc(-c2cn[nH]c2)cc1)c1ccccc1 — IOP (tonometry; Macaca cyclopis, ocular normotensive; ocular, 0.03%, 72 h): 18.8 mmHg
COC1OC(C)C(OS(=O)(=O)O)C(OC2OC(C)C(OS(=O)(=O)O)C(OC3OC(C)C(OS(=O)(=O)O)C(OC4OC(C)C(OS(=O)(=O)O)C(OC5OC(C)C(OS(=O)(=O)O)C(OC6OC(C)C(OS(=O)(=O)O)C(OC7OC(C)C(OS(=O)(=O)O)C(OC8OC(C)C(OS(=O)(=O)O)C(OS(=O)(=O)O)C8OS(=O)(=O)O)C7OS(=O)(=O)O)C6OS(=O)(=O)O)C5OS(=O)(=O)O)C4OS(=O)(=O)O)C3OS(=O)(=O)O)C2OS(=O)(=O)O)C1OS(=O)(=O)O (centres unmarked) — activated partial thromboplastin time (human plasma; 32 µg/mL): 119 s and 117 s and 113 s
COCC1CN(C2CCN(c3cc(OC)c(Nc4ncc(Br)c(Nc5ccc6c(c5P(C)(C)=O)OCCO6)n4)cc3C)CC2)C1 — not evaluable patients (RECIST 1.1; advanced EGFR-mutant NSCLC patients; 240 mg once daily): 0%
